Measurements gathered from unrelated publications.
Values joined by “and” are separate records of one study, mostly repeats; a detail may differ.

Compound	assay	system	setting	how to read	measurement	value
COc1ncc(-c2nc3c(n2C(C)C)[C@H](c2ccc(Cl)cc2)N(c2cc(Cl)cn(C)c2=O)C3=O)c(OC)n1	LC-MS/MS, noncompartmental	human, plasma	oral, 200 mg, cycle 1 day 1, high-dose, geometric mean		AUC(0-last)	19300 ng·h/mL
O=C(O)CSc1nnc(Br)n1-c1ccc(C2CC2)c2ccccc12		KM mouse, chronic hyperuricaemia model	dose not given, day 1		body weight	24.4 g and 26.1 g and 26.5 g and 24.9 g and 27.4 g and 23.5 g
C1CCCC1.C1CCCC1.[Cl][W][Cl]	cyclic voltammetry			reference: Ag/AgCl	oxidation potential	185 mV
CC(C)[C@@H](CN1CC[C@@](C)(c2cccc(O)c2)[C@@H](C)C1)NC(=O)[C@H]1Cc2ccc(O)cc2CN1		Sprague-Dawley rat, brain	intraperitoneal, 10 mg/kg		AUCtotal	27800 ng·h/g
O=C1CC[C@H](N2Cc3cc(N4CCN(CC5CCN(c6ccc([C@@H]7c8ccc(O)cc8CC[C@@H]7c7ccccc7)cc6)CC5)CC4)ccc3C2=O)C(=O)N1		human	oral, 200 mg, added: rosuvastatin 10 mg		participants with TEAEs	25%
CC[C@H](C)[C@H](NC(=O)[C@H](Cc1ccccc1)NC(=O)[C@H](CCC(=O)O)NC(=O)[C@H](CCCCNC(=O)COCCOCCNC(=O)COCCOCCNC(=O)CC[C@H](NC(=O)CCCCCCCCCCCCCCCCC(=O)O)C(=O)O)NC(=O)[C@H](C)NC(=O)[C@H](C)NC(=O)[C@H](CCC(N)=O)NC(=O)CNC(=O)[C@H](CCC(=O)O)NC(=O)[C@H](CC(C)C)NC(=O)[C@H](Cc1ccc(O)cc1)NC(=O)[C@H](CO)NC(=O)[C@H](CO)NC(=O)[C@@H](NC(=O)[C@H](CC(=O)O)NC(=O)[C@H](CO)NC(=O)[C@@H](NC(=O)[C@H](Cc1ccccc1)NC(=O)[C@@H](NC(=O)CNC(=O)[C@H](CCC(=O)O)NC(=O)C(C)(C)NC(=O)[C@@H](N)Cc1cnc[nH]1)[C@@H](C)O)[C@@H](C)O)C(C)C)C(=O)N[C@@H](C)C(=O)N[C@@H](Cc1c[nH]c2ccccc12)C(=O)N[C@@H](CC(C)C)C(=O)N[C@H](C(=O)N[C@@H](CCCNC(=N)N)C(=O)NCC(=O)N[C@@H](CCCNC(=N)N)C(=O)NCC(=O)O)C(C)C		healthy human	subcutaneous, 1.5 mg once weekly, 0 h, steady state	reference: placebo, baseline	change in QT interval	-16.5 ms
NC(=O)N1c2ccccc2C=Cc2ccccc21		healthy human subjects, plasma	oral, dose not given, day 21, twice daily, with glecaprevir and pibrentasvir		AUC(0-12h)	81600 ng·h/mL
O=C1Nc2ccc(Cl)cc2[C@@](C#CC2CC2)(C(F)(F)F)O1		human, plasma	oral, 600 mg, day 30, median		trough plasma concentration	2310 ng/mL
C[C@@H](Oc1ccc(S(C)(=O)=O)cc1C(=O)N1C[C@@H]2C[C@]2(c2cc(C(F)(F)F)on2)C1)C(F)(F)F	refers to: 14C radioactivity	human, urine	oral, 25 mg, 0 to 677 h, geometric mean	reference: dose	urinary excretion	48.1%
CN1C[C@H](COc2nccc3c(NCc4ccco4)cc(Cl)nc23)OC1=O		rat Crl:CD(SD) male	oral, 1000 mg/kg, single dose		adverse necropsy findings	negative
CNC(=O)c1ccc(-c2cnc3ncc(Cc4ccc5ncccc5c4)n3n2)cc1F	refers to: Anemia	other cancer patients	oral, 600 mg twice daily, expansion cohort, grade 3-4		patients with adverse event	6%
Cc1ccc([C@@H]2O[C@H](CO)[C@@H](O)[C@H](O)[C@H]2O)cc1Cc1ccc(-c2ccc(F)cc2)s1		Japanese type 2 diabetes patients	400 mg, day 15, 24 h urine collection	reference: baseline	urinary magnesium excretion change	11.1 mg
Cc1ccc(C(=O)N(CCCN)C(c2nc3snc(C)c3c(=O)n2Cc2ccccc2)C(C)C)cc1 (centres unmarked)		human patients	intravenous, 16 mg/day		grade ≥3 dysphagia patients	0%
CC(C)(C(=O)N1CCOc2c(C#N)cncc2C1)C(F)F	refers to: Vomiting	human	oral, 40 mg, CSF pharmacokinetic cohort		subjects with adverse event	16.7%
O=C(CCCCCCC(=O)Nc1ccccc1)NO		FaSSIF	literature solubility over dose		dose-adjusted solubility	0.62 mL⁻¹
NCc1cc2c(cc1F)C(=O)N(C1CCC(=O)NC1=O)C2 (centres unmarked)		male cynomolgus monkey, whole blood			half-life	10.2 min
N#C[C@@]1(c2ccc3c(N)ncnn23)O[C@H](CO)[C@@H](O)[C@H]1O		human plasma	1 µM		fraction unbound	0.818

Excerpt of the above:
Compound	assay	system	setting	how to read	measurement	value
O=C(O)CSc1nnc(Br)n1-c1ccc(C2CC2)c2ccccc12		KM mouse, chronic hyperuricaemia model	dose not given, day 1		body weight	24.4 g and 26.1 g and 26.5 g and 24.9 g and 27.4 g and 23.5 g
